Measured values collected from several papers.
Lines come from different studies, so protocols differ.
Organism: Staphylococcus aureus

Molecule | assay | test system | setting | MIC
CC[C@H](C)[C@H](NC(=O)[C@H](CC(=O)O)NC(=O)[C@H](Cc1ccccc1)NC(=O)[C@H](CC(C)C)NC(=O)CN)C(=O)N[C@H](C(=O)N[C@@H](CCCCN)C(=O)N[C@@H](CCCCN)C(=O)N[C@H](C(=O)N[C@H](C(=O)N[C@@H](CCCCN)C(=O)N[C@@H](CC(C)C)C(=O)N[C@@H](CC(C)C)C(=O)N[C@@H](CCCCN)C(N)=O)C(C)C)C(C)C)C(C)C |  | ATCC 43300, CAMHB | 18 h, 37 °C | > 20 µM
CC[C@H](C)[C@H](NC(=O)[C@H](CCCCN)NC(=O)[C@H](CCC(=O)O)NC(=O)[C@H](CCCCN)NC(=O)[C@H](CO)NC(=O)[C@H](CCCCN)NC(=O)[C@H](CCCNC(=N)N)NC(=O)[C@H](Cc1ccccc1)NC(=O)[C@H](Cc1ccccc1)NC(=O)[C@H](CC(=O)O)NC(=O)CNC(=O)[C@H](CC(C)C)NC(=O)[C@@H](N)CC(C)C)C(=O)NCC(=O)N[C@@H](CCCCN)C(=O)N[C@@H](CCC(=O)O)C(=O)N[C@@H](Cc1ccccc1)C(=O)N[C@@H](CCCCN)C(=O)N[C@@H](CCCNC(=N)N)C(=O)N[C@H](C(=O)N[C@H](C(=O)N[C@@H](CCC(N)=O)C(=O)N[C@@H](CCCNC(=N)N)C(=O)N[C@H](C(=O)N[C@@H](CCCCN)C(=O)N[C@@H](CC(=O)O)C(=O)N[C@@H](Cc1ccccc1)C(=O)N[C@@H](CC(C)C)C(=O)N[C@@H](CCCNC(=N)N)C(=O)N[C@@H](CC(N)=O)C(=O)N[C@@H](CC(C)C)C(=O)N[C@H](C(=O)N1CCC[C@H]1C(=O)N[C@@H](CCCNC(=N)N)C(=O)N[C@H](C(=O)N[C@@H](CCC(=O)O)C(=O)N[C@@H](CO)C(=O)O)[C@@H](C)O)C(C)C)[C@@H](C)CC)C(C)C)[C@@H](C)CC |  | JE2 wild type | 37 °C, 50% or 12.5% TSB | 3.1 µM
CC[C@H](C)[C@H](NC(=O)[C@H](CO)NC(=O)[C@H](CC(C)C)NC(=O)[C@H](Cc1ccccc1)NC(=O)CN)C(=O)N[C@@H](CC(C)C)C(=O)N[C@@H](CCCCN)C(=O)N[C@@H](CCCCN)C(=O)N[C@H](C(=O)N[C@@H](CC(C)C)C(=O)N1CCC[C@H]1C(=O)N[C@@H](CCCCN)C(=O)N[C@H](C(=O)N[C@@H](CCSC)C(=O)N[C@@H](C)C(=O)N[C@@H](Cc1c[nH]cn1)C(=O)N[C@@H](CCSC)C(=O)N[C@@H](CCCCN)C(N)=O)C(C)C)C(C)C | broth microdilution | USA300 LAC | 37 °C | 12.5 to 25 µM
CC[C@H](C)[C@H](NC(=O)[C@H](Cc1ccc(O)cc1)NC(=O)[C@H](CCCCN)NC(=O)[C@@H](N)CS)C(=O)N[C@@H](CC(C)C)C(=O)N[C@@H](CC(C)C)C(=O)N[C@@H](CC(C)C)C(=O)N[C@@H](CCCNC(=N)N)C(=O)N[C@@H](CCCNC(=N)N)C(=O)N[C@@H](CCC(N)=O)C(=O)N[C@@H](CC(C)C)C(=O)N[C@@H](C)C(=O)N[C@@H](CCCNC(=N)N)C(=O)N[C@@H](C)C(=O)N[C@@H](Cc1c[nH]c2ccccc12)C(=O)N[C@@H](CCCNC(=N)N)C(=O)N[C@@H](CCCNC(=N)N)C(=O)NCC(=O)N[C@@H](CC(C)C)C(=O)N[C@@H](CCCNC(=N)N)C(=O)O | broth microdilution | USA300 JE2 wild type | 18 to 20 h | 24 µg/mL
CC[C@H](C)[C@H](NC(=O)[C@H](Cc1c[nH]cn1)NC(=O)[C@H](Cc1c[nH]cn1)NC(=O)[C@H](Cc1ccccc1)NC(=O)[C@@H](N)Cc1ccccc1)C(=O)N[C@@H](Cc1ccccc1)C(=O)N[C@@H](CCCNC(=N)N)C(=O)NCC(=O)N[C@@H](C)C(=O)N[C@H](C(=O)N[C@@H](Cc1c[nH]cn1)C(=O)N[C@H](C(=O)NCC(=O)N[C@@H](CCCCN)C(=O)N[C@H](C(=O)N[C@H](C(=O)N[C@@H](Cc1c[nH]cn1)C(=O)N[C@@H](CCCNC(=N)N)C(=O)N[C@@H](CC(C)C)C(=O)N[C@H](C(=O)N[C@H](C(=O)NCC(N)=O)[C@@H](C)O)C(C)C)[C@@H](C)CC)[C@@H](C)O)C(C)C)C(C)C | broth microdilution | MRSA clinical isolate, brain heart infusion | 18 h, 37 °C | 3.1 µg/mL
CC[C@H](C)[C@H](NC(=O)[C@H](Cc1c[nH]cn1)NC(=O)[C@H](CCCCN)NC(=O)[C@@H](NC(=O)[C@@H](NC(=O)[C@H](CC(=O)O)NC(=O)[C@H](Cc1ccccc1)NC(=O)[C@H](Cc1c[nH]c2ccccc12)NC(=O)CN)C(C)C)C(C)C)C(=O)N[C@@H](C)C(=O)N[C@@H](CCCCN)C(=O)N[C@@H](CCCNC(=N)N)C(=O)N[C@@H](Cc1ccccc1)C(N)=O | broth microdilution | USA300 LAC | 37 °C | 50 µM
CC(C)[C@H](N)C(=O)N[C@@H](CS)C(=O)N1CCC[C@H]1C(=O)N[C@@H](Cc1c[nH]cn1)C(=O)N[C@@H](CCCNC(=N)N)C(=O)N[C@@H](CS)C(=O)O | broth microdilution | MTCC 96 | 37 °C | 110 µg/mL
CC(C)C[C@H](NC(=O)CN)C(=O)N[C@@H](Cc1ccccc1)C(=O)N[C@@H](CCCCN)C(=O)N[C@@H](CC(C)C)C(=O)N[C@@H](CC(C)C)C(=O)N[C@@H](CCCCN)C(=O)N[C@@H](CCCCN)C(=O)N[C@@H](CC(C)C)C(=O)N[C@@H](CC(C)C)C(=O)N[C@@H](CCCCN)C(=O)N[C@@H](CC(C)C)C(=O)N[C@@H](CC(C)C)C(=O)N[C@@H](CCCCN)C(N)=O |  | SH1000 GFP-expressing, nutrient broth | 20 h, 37 °C | 33 µM
CC[C@H](C)[C@H](NC(=O)[C@H](CC(C)C)NC(=O)[C@H](C)NC(=O)[C@@H]1CCCN1C(=O)[C@H](CCCNC(=N)N)NC(=O)[C@@H](N)Cc1ccccc1)C(=O)N[C@H](C(=O)N[C@@H](CCCNC(=N)N)C(=O)N[C@H](C(=O)N[C@@H](CCCCN)C(=O)NCC(=O)N[C@H](C(=O)N[C@@H](CCCNC(=N)N)C(=O)N[C@@H](CC(C)C)C(=O)O)[C@@H](C)O)[C@@H](C)O)C(C)C | broth microdilution | USA300 LAC | 37 °C | > 30 µM
PACAP(6-38) |  | ATCC 25923 |  | 1.81 µM
actinomycin Y3 | broth microdilution | ATCC 6538 | 16 to 48 h | > 9.33 µg/mL
CCC(C)C(=O)c1c(O)cc(O)cc1OC/C=C(\C)CCC=C(C)C (centres unmarked) | broth microdilution | ATCC 29213 (MSSA) |  | 1.56 µg/mL
C[C@H]1COc2c(N3CCN(C)CC3)c(F)cc3c(=O)c(C(=O)O)cn1c23 | microbial growth, broth dilution | ATCCBAA1717 MRSA | 20 h | 0.48 µg/mL
CC[C@H](C)[C@H](NC(=O)[C@H](C)NC(=O)[C@H](CCCCN)NC(=O)[C@H](CC(C)C)NC(=O)[C@H](C)NC(=O)[C@@H](NC(=O)[C@H](Cc1c[nH]cn1)NC(=O)[C@H](CC(C)C)NC(=O)[C@@H](NC(=O)[C@@H](NC(=O)[C@H](CCCCN)NC(=O)[C@H](CCCCN)NC(=O)[C@H](C)NC(=O)[C@H](CO)NC(=O)[C@H](CCCCN)NC(=O)[C@H](Cc1ccccc1)NC(=O)[C@@H](NC(=O)[C@H](CCCCN)NC(=O)[C@H](CC(C)C)NC(=O)[C@H](Cc1ccccc1)NC(=O)[C@H](CO)NC(=O)[C@H](CCCCN)NC(=O)[C@H](Cc1c[nH]c2ccccc12)NC(=O)[C@H](CCCCN)NC(C)=O)[C@@H](C)O)[C@@H](C)O)C(C)C)[C@@H](C)O)C(=O)N[C@@H](CO)C(=O)N[C@@H](CO)C(N)=O | broth dilution | ATCC 25923, Mueller-Hinton broth | 24 h, 37 °C | 16 µg/mL
CC[C@H](C)[C@H](NC(=O)[C@H](CC(=O)O)NC(=O)[C@H](Cc1ccccc1)NC(=O)[C@H](CC(C)C)NC(=O)CN)C(=O)N[C@H](C(=O)N[C@@H](CCCCN)C(=O)N[C@@H](CCCCN)C(=O)N[C@H](C(=O)N[C@H](C(=O)NCC(=O)N[C@@H](C)C(=O)N[C@@H](CC(C)C)C(=O)NCC(N)=O)C(C)C)C(C)C)C(C)C |  | SH1000 GFP-expressing, nutrient broth | 20 h, 37 °C | 50 µM
N=C(N)NCCC[C@H](NC(=O)[C@@H](N)CCCCN)C(=O)N[C@@H](Cc1c[nH]c2ccccc12)C(=O)N[C@@H](Cc1c[nH]c2ccccc12)C(=O)N[C@@H](CCC(N)=O)C(=O)N[C@@H](Cc1c[nH]c2ccccc12)C(=O)N[C@@H](Cc1c[nH]c2ccccc12)C(=O)N[C@@H](CCCCN)C(N)=O | broth microdilution | USA300, Mueller-Hinton broth | overnight, 37 °C | 8 µM
CC[C@H](C)[C@H](NC(=O)CN)C(=O)N[C@@H](Cc1c[nH]c2ccccc12)C(=O)N[C@@H](CC(=O)O)C(=O)N[C@H](C(=O)N[C@H](C(=O)N[C@@H](CCCCN)C(=O)N[C@@H](CO)C(=O)N[C@@H](CCSC)C(=O)NCC(=O)N[C@@H](CCCCN)C(=O)N[C@H](C(=O)N[C@@H](Cc1ccccc1)C(=O)N[C@@H](C)C(=O)NCC(=O)N[C@@H](CCCCN)C(=O)N[C@H](C(=O)N[C@@H](CC(C)C)C(=O)N[C@@H](CCC(N)=O)C(=O)N[C@@H](CC(N)=O)C(=O)N[C@@H](CC(C)C)C(N)=O)[C@@H](C)CC)C(C)C)[C@@H](C)CC)[C@@H](C)O | broth microdilution | USA300 LAC | 37 °C | 25 µM
Cc1nc2ccccc2n(-c2ccc([N+](=O)[O-])cc2[N+](=O)[O-])c1=O | microbial growth | ATCC25923 |  | 32.2 µg/mL
CC(C)C[C@H](NC(=O)[C@H](CC(C)C)NC(=O)[C@H](CCCCN)NC(=O)[C@H](CC(C)C)NC(=O)[C@H](CC(C)C)NC(=O)[C@H](CCCCN)NC(=O)[C@H](CCCCN)NC(=O)[C@H](CC(C)C)NC(=O)[C@H](CC(C)C)NC(=O)[C@H](CCCCN)NC(=O)[C@H](CC(C)C)NC(=O)[C@H](CC(C)C)NC(=O)[C@@H](N)CCCCN)C(=O)NCC(N)=O |  | SH1000 GFP-expressing, nutrient broth | 20 h, 37 °C | > 100 µM
CSCC[C@H](NC(=O)[C@H](CO)NC(=O)[C@H](CCCCN)NC(=O)[C@H](Cc1c[nH]c2ccccc12)NC(=O)[C@@H](N)CO)C(=O)N[C@@H](C)C(=O)N[C@@H](CCCCN)C(=O)N[C@@H](CCCCN)C(=O)N[C@@H](CC(C)C)C(=O)N[C@@H](CCCCN)C(=O)N[C@@H](CCC(=O)O)C(=O)N[C@@H](Cc1ccc(O)cc1)C(=O)N[C@@H](CCSC)C(=O)N[C@@H](CCC(=O)O)C(=O)N[C@@H](CCCCN)C(=O)N[C@@H](CC(C)C)C(=O)N[C@@H](CCCCN)C(=O)N[C@@H](CCC(N)=O)C(=O)N[C@@H](CCCNC(=N)N)C(=O)N[C@@H](C)C(=O)O | broth microdilution | USA300 LAC | 37 °C | > 100 µM

Some of these lines once more:
Molecule | assay | test system | setting | MIC
CC(C)[C@H](N)C(=O)N[C@@H](CS)C(=O)N1CCC[C@H]1C(=O)N[C@@H](Cc1c[nH]cn1)C(=O)N[C@@H](CCCNC(=N)N)C(=O)N[C@@H](CS)C(=O)O | broth microdilution | MTCC 96 | 37 °C | 110 µg/mL
CC(C)C[C@H](NC(=O)CN)C(=O)N[C@@H](Cc1ccccc1)C(=O)N[C@@H](CCCCN)C(=O)N[C@@H](CC(C)C)C(=O)N[C@@H](CC(C)C)C(=O)N[C@@H](CCCCN)C(=O)N[C@@H](CCCCN)C(=O)N[C@@H](CC(C)C)C(=O)N[C@@H](CC(C)C)C(=O)N[C@@H](CCCCN)C(=O)N[C@@H](CC(C)C)C(=O)N[C@@H](CC(C)C)C(=O)N[C@@H](CCCCN)C(N)=O |  | SH1000 GFP-expressing, nutrient broth | 20 h, 37 °C | 33 µM
CC[C@H](C)[C@H](NC(=O)[C@H](CC(C)C)NC(=O)[C@H](C)NC(=O)[C@@H]1CCCN1C(=O)[C@H](CCCNC(=N)N)NC(=O)[C@@H](N)Cc1ccccc1)C(=O)N[C@H](C(=O)N[C@@H](CCCNC(=N)N)C(=O)N[C@H](C(=O)N[C@@H](CCCCN)C(=O)NCC(=O)N[C@H](C(=O)N[C@@H](CCCNC(=N)N)C(=O)N[C@@H](CC(C)C)C(=O)O)[C@@H](C)O)[C@@H](C)O)C(C)C | broth microdilution | USA300 LAC | 37 °C | > 30 µM
